# Assay results from different studies.
# Protocols differ between the studies behind these lines. ± gives the spread as reported.
Compound,tested on,assay,test system,setting,how to read,quantity,value
N=C(N)NCc1ccc(C(=O)NCCCC[C@H](NC(=O)N[C@@H](CCC(=O)O)C(=O)O)C(=O)O)cc1[131I],,,"SCID mouse, PC-3 xenografts, thyroid",1 h,,tissue uptake,0.34 ± 0.13 %ID/g
COc1cc2ncnc(Oc3cccc(N[11C](=O)Nc4cc(C(C)(C)C(F)(F)F)on4)c3)c2cc1OC,,,"Balb/c nude mouse, female, A375 melanoma xenograft, brain","6.6 MBq, 60 min",,tissue uptake,0.15 %ID/g
CCCC[C@H](NC(=O)CNC(=O)CNC(=O)c1ccc(NN)nc1)C(=O)N[C@H]1CC(=O)NCCCC[C@@H](C(N)=O)NC(=O)[C@H](Cc2c[nH]c3ccccc23)NC(=O)[C@H](CCCNC(=N)N)NC(=O)[C@@H](Cc2ccccc2)NC(=O)[C@H](Cc2c[nH]cn2)NC1=O [technetium-99m labelled],,,"C57 mouse, B16/F1 melanoma, kidneys","2 h, added: L-lysine 12 mg",,uptake,4.37 ± 0.36 %ID/g
CCNc1cc2[o+]c3cc(NCC)c(C)cc3c(-c3ccccc3C(=O)OCCOCC[18F])c2cc1C,,,"rat, muscle",60 min,,tissue uptake,0.12 ± 0.03 %ID/g
CCN(CC)c1ccc2c(-c3ccccc3C(=O)OCCC[18F])c3ccc(=[N+](CC)CC)cc-3oc2c1,,,"rat, spleen",60 min,,tissue uptake,3.82 ± 0.32 %ID/g
CN(C)c1ccc(C(=O)NCCCCN2CCN(c3ccccc3O[11CH3])CC2)cc1,,,"male Sprague Dawley rat, blood","iv, 5 min",reference: untreated,tissue uptake,0.057 ± 0.011 %ID/g
C=Cc1cc(O)cc2nc(-c3ccc(O)c([76Br])c3)oc12,,,"female C57BL/6 mouse, kidney","1 h, high dose, added: estradiol 20 µg blocking",,tissue uptake,0.93 ± 0.23 %ID/g
COc1cc(C(=O)NCCOCCOCCOCCNC(=O)c2ccc([18F])nc2)ccc1NC(=O)C1NC(CC(C)(C)C)C(C#N)(c2ccc(Cl)cc2F)C1c1cccc(Cl)c1F (stereo not drawn),HepG2 tumour model,,"host not given, stomach","2 h, tumour-bearing",,tracer uptake,1.72 %ID/g
O=C(O)CC[C@H](NC(=O)O[C@@H](CCCCNC(=O)c1ccc([18F])cc1)C(=O)O)C(=O)O,,,"mouse, PC-3 PIP/flu xenografts, small intestine",60 min,,tissue uptake,0.54 ± 0.19 %ID/g
O=C(O)CCC(NP(=O)(O)OCCC[C@@H](NC(=O)CCC(NC(=O)CCCCCNC(=O)c1ccc([18F])cc1)C(=O)O)C(=O)O)C(=O)O (stereo partly drawn),PC-3 tumour model,,"host not given, muscle","intravenous, 2 h, tumour-bearing",,tracer uptake,0.06 %ID/g
N=C(N)NCc1ccc(C(=O)NCCCC[C@H](NC(=O)CCCCCCC(=O)NCCCC[C@H](NC(=O)N[C@@H](CCC(=O)O)C(=O)O)C(=O)O)C(=O)O)cc1[211At],,,"SCID mouse, PC-3 xenografts, spleen",21 h,,tissue uptake,2.07 ± 0.68 %ID/g
CN(C)CC1CCCCC1(O)c1cccc(O)c1 (stereo not drawn),,,Caco-2,"100 µM, 3 h, pH 6.8",,Papp B→A,15.2 ×10⁻⁶ cm/s
N=C(N)NCc1ccc(C(=O)NCCCC[C@H](NC(=O)CCCCCCC(=O)NCCCC[C@H](NC(=O)N[C@@H](CCC(=O)O)C(=O)O)C(=O)O)C(=O)O)cc1[131I],,,"SCID mouse, PC-3 xenografts, brain",2 h,,tissue uptake,0.04 ± 0.02 %ID/g
COc1ccc(C)cc1NC(=O)OC1CC2CCCC(C1)N2Cc1ccc(CC[18F])cc1 (stereo not drawn),,,"BALB/c mice, EMT6 tumour, lung",5 min,,tissue uptake,111 ± 13.5 %ID/g
N=C(N)NCc1ccc(C(=O)NCCCC[C@H](NC(=O)N[C@@H](CCC(=O)O)C(=O)O)C(=O)O)cc1[211At],,,"SCID mouse, PC-3 xenografts, thyroid",14 h,,tissue uptake,0.74 ± 0.27 %ID/g
CCN(Cc1ccccc1)C(=O)CCc1nc(CN2CCN(C(=O)Cc3ccc(OC)c(OC)c3)CC2)no1,"KCNQ5 (Homo sapiens, UniProt Q9NR82)","potassium current, whole-cell patch clamp",transfected cells,1 µM,,activation V1/2,-58.3 ± 1.72 mV
CCN(CC)c1ccc2c(-c3ccccc3C(=O)OCCOCC[18F])c3ccc(=[N+](CC)CC)cc-3oc2c1,,,"rat, blood",60 min,,tissue uptake,0.25 ± 0.02 %ID/g
"O=C(c1ccc(F)cc1)C1CCN(C2Cc3c(cccc3OCC[18F])CC2O)CC1 (single isomer, unassigned; (-))",,,"Sprague-Dawley rat, male, muscle","intravenous, dose not given, 30 min",,tissue uptake,0.258 ± 0.025 %ID/g
N=C(N)NCCC[C@@H]1NC(=O)[C@H](CCCCNC(=O)CNC(=O)CNC(=O)CNC(=O)CC[C@H](NC(=O)CCOCCOCCOCCOCCNC(=O)CC[C@H](NC(=O)CN2CCN(CC(=O)O)CCN(CC(=O)O)CCN(CC(=O)O)CC2)C(=O)NCCOCCOCCOCCOCCC(=O)N[C@@H](CCC(=O)NCC(=O)NCC(=O)NCC(=O)NCCCC[C@@H]2NC(=O)[C@@H](Cc3ccccc3)NC(=O)[C@H](CC(=O)O)NC(=O)CNC(=O)[C@H](CCCNC(=N)N)NC2=O)C(=O)NCC(=O)NCC(=O)NCC(=O)NCCCC[C@@H]2NC(=O)[C@@H](Cc3ccccc3)NC(=O)[C@H](CC(=O)O)NC(=O)CNC(=O)[C@H](CCCNC(=N)N)NC2=O)C(=O)NCC(=O)NCC(=O)NCC(=O)NCCCC[C@@H]2NC(=O)[C@@H](Cc3ccccc3)NC(=O)[C@H](CC(=O)O)NC(=O)CNC(=O)[C@H](CCCNC(=N)N)NC2=O)NC(=O)[C@@H](Cc2ccccc2)NC(=O)[C@H](CC(=O)O)NC(=O)CNC1=O [indium-111 labelled],,,female athymic nude mouse,"intravenous, 3 µCi, 4 h, U-87 MG glioma xenograft",reference: tumour over muscle,tumour to muscle ratio,18.1 ± 2.95
CC[C@H](C)C(=O)N1CCC(NC(=O)Nc2ccc(OC(F)(F)F)c(F)c2)CC1,,,"human, plasma","oral, single dose, healthy volunteers",,half-life,~62.4 h
CN[C@](C)(C[18F])C(=O)O,,,"SCID mouse A549 xenograft, tumour",30 min post injection,,tissue uptake,4.5 ± 0.3 %ID/g

# For quick reference, copied from above:
Compound,tested on,assay,test system,setting,how to read,quantity,value
CN(C)CC1CCCCC1(O)c1cccc(O)c1 (stereo not drawn),,,Caco-2,"100 µM, 3 h, pH 6.8",,Papp B→A,15.2 ×10⁻⁶ cm/s
C=Cc1cc(O)cc2nc(-c3ccc(O)c([76Br])c3)oc12,,,"female C57BL/6 mouse, kidney","1 h, high dose, added: estradiol 20 µg blocking",,tissue uptake,0.93 ± 0.23 %ID/g
